Experimental data of several laboratories.
± gives the spread as reported.

| Substance | tested on | assay | system | setting | scale | endpoint | result |
| --- | --- | --- | --- | --- | --- | --- | --- |
| susB (Bacteroides thetaiotaomicron, UniProt G8JZS4) | O=[N+]([O-])c1ccc(O[C@H]2O[C@H](CO)[C@@H](O)[C@H](O)[C@H]2O)cc1 | steady-state kinetics | – | pH 6.6 | – | Km | 89 µM |
| Fc1ccccc1Cc1nc(-c2nc(C(F)(F)F)n[nH]2)cn2ccnc12 | – | – | healthy human subjects, both sexes | oral, 10 mg, fasted | – | subjects with irregular menstruation | 0% |
| HY6-F9 chimeric IgG1 L309D/Q311H/N434S (Homo sapiens) | FCGRT/B2M FcRn (Homo sapiens) | BLI | – | – | – | Kd | 3.63 ± 0.1 nM |
| COc1cc([C@@H]2c3cc4c(cc3[C@@H](O[C@@H]3O[C@@H]5CO[C@@H](C)O[C@H]5[C@H](O)[C@H]3O)[C@H]3COC(=O)[C@H]23)OCO4)cc(OC)c1O | TOP2A (Homo sapiens, UniProt P11388) | DNA cleavage | – | 125 µM, replicate 2 | – | linear DNA | 23.2% |
| N#CCC1CCN(c2nc(Nc3ccc(N4CCC(O)CC4)cc3)c3c(=O)[nH]ncc3n2)CC1 | – | vs placebo, Olink multiplex | human, serum | 80 mg, day 29, unit not given | reference: placebo | IL-18 level difference | -1.67 |
| enzyme (Bacteroides thetaiotaomicron, UniProt Q89YZ9) | O=[N+]([O-])c1ccc(O[C@H]2O[C@H](CO)[C@@H](O)[C@H](O)[C@H]2O)cc1 | steady-state kinetics | – | pH 6.6 | – | kcat/Km | 552000 M⁻¹ s⁻¹ |
| COC(=O)Nc1c(N)nc(-c2nn(Cc3ccccc3F)c3ncc(F)cc23)nc1N | – | – | human, fasting, plasma | 5 mg single dose, alone, geometric mean | – | AUC | 2490 ng·h/mL |

Excerpt of the above:
| Substance | tested on | assay | system | setting | scale | endpoint | result |
| --- | --- | --- | --- | --- | --- | --- | --- |
| susB (Bacteroides thetaiotaomicron, UniProt G8JZS4) | O=[N+]([O-])c1ccc(O[C@H]2O[C@H](CO)[C@@H](O)[C@H](O)[C@H]2O)cc1 | steady-state kinetics | – | pH 6.6 | – | Km | 89 µM |
